Experimental data pooled from the literature.
A part holds a random share of what one study measured.

Set 1
Target: Prothrombin, mature alpha-thrombin (F2, Homo sapiens, UniProt P00734)
Technique: aptamer microarray, sandwich
Form: DNA with 2'F-ANA
Matrix: in vitro
Concentration: 200 nM
Notes: whole 15-mer aptamer, many near background
Together with: Cy3 exosite-II aptamer, 400 nM
Reading: higher = stronger binding
Strand: GGTTGGTGTGGTTGG
Modification | mean fluorescence intensity
2'F-ANA at 1 4 5 6 8 11 14 15 | 51.4 a.u.
2'F-ANA at 1 2 3 4 5 9 10 11 13 14 | 53.4 a.u.
2'F-ANA at 1 3 4 5 6 9 10 11 12 13 15 | 51.2 a.u.
2'F-ANA at 1 6 7 8 9 11 15 | 154 a.u.
2'F-ANA at 1 3 9 13 15 | 246 a.u.
2'F-ANA at 1 5 7 11 12 13 14 15 | 47.7 a.u.
2'F-ANA at 3 4 5 6 7 13 14 | 134 a.u.

Set 2
Target: Interferon regulatory factor 5, full length, phosphomimetic (IRF5, Homo sapiens, UniProt Q13568-2, residues 1-514, S451D/S453D/S456D/S462D)
Technique: protein-binding microarray
Form: double-stranded DNA, one strand shown
Matrix: in vitro
Concentration: 940 nM top
Notes: 60-bp whole probe
Together with: salmon DNA 0.4 mg/ml
Relative to: random background probes
Reading: higher = stronger binding
All sequences stand within: GCCTAGCAC … GTCTTGATTCGCTTGACGCTGCTG
Strand | fitted relative affinity [z-score]
TCAAGTATGTTCACTATTACTGTGCTA | -0.0675
GACGATTTCAGTATCGAGTCGTGCTAG | 4.18
GAGGGACTGGGGTTTCGGGACGTGCTA | 1.8
TCAAAAATCTCAATGGGACTGTGCTAG | -0.0966
CTGGGCAGGATGAGTTCCAGGTGCTAG | 0.577
AACGGTATCCTTCTCCTGACGTGCTAG | 0.898
GATGGTTTCGGGTTTCGGGACGTGCTA | 10.1
GACGGGTTCCTTTTCCTGACGTGCTAG | 0.245

Set 3
Target: RNA binding protein fox-1 homolog 2, RRM domain, GST-SBP tag (RBFOX2, Homo sapiens, UniProt O43251-10, residues 100-194)
Technique: RNA Bind-n-Seq
Form: RNA
Matrix: in vitro
Concentration: 365 nM
Notes: natural RNA segment, single round, ends assumed
Relative to: no-protein control
Reading: higher = stronger binding
All sequences stand within: GGGAGUUCUACAGUCCGACGAUC … UGGAAUUCUCGGGUGCCAA
Strand | RBNS enrichment (R)
ACAGGUUAAAAUGGAAUUUAAUCUCAGAGAUCCUUUGUUCAAGAAUAUUUGAUUGCAUAUUUAGUUGUAGUAAGAUUUUAUAAAAUACAUAAUCCUUUGUAUGUGCAGUU | 0.85
UCCUGUGCUGUGUCUGUACUCAGCCAUGUGUGUUUUGUCUGCUGUCUGUCUUCUGAGGCUUAGCAUCUGUCAGGGCUGGGGUUGGUUCAGCCCUUGGUACUCCAGAUGUG | 0.628
AGAGCCACACCCAUGCCAUUACUGUAACAUUCCAACAUCUCCAUCUGACCUGACCUCCAUAUCUUCUCUUGCCAGCCUUUCCCUAUGCUCCCUCAAAUAUGUAUCUGAUG | 1.39
UGUGAGGGCAAACUAGAAUUAGUAGUGAGAAACUGCUAAAGCUGAUUUGCCAUUUUACUGAAAUGGAAAAUGAUUUUUUUUCAAAUAAAUACUUAUAUUGUUCAUGUUCC | 0.412
ACCCCAAACCUGUUUUGUACUUAGAGACUGGCUUUGGUCAGUAGUUCACUGUGGAGACAAUGACAGUAUUCUCUGUGCCAGUGUCGCUGAUGGAGCUCCCCCUCCCCACA | 0.51
UGUGUUUUCGUCACAGGAGUCUUUGUAAUGCUUGUACAGUUGAUGUCGAUGCUCACUGCUUCUGCUUUUUCUUUCUUUUUAUUUUAAAUCUGAAGGUUCUGGUAACCUGU | 0.482
CCAGUAUUCUCACUGUCUUCUAUUUCUAGUAGGGAGCUGGAGUCAAAUAACUUGUAUAGAUUUUGGUUACCUACCCUUAAGUUCCCUCCCGUAGAUUAGCCUUUAGAAGU | 0.482

Mixed results
Molecule | target | assay | system | conditions | scale | endpoint | result
PhoQ, residues 284 288 289 292 302 303 SIHLQL | PhoP, residues 12 14 15 18 19 SGWQI (Escherichia coli, UniProt P23836) | Sort-seq, item: YFP reporter | E. coli | PhoQ-PhoP variant library, together with: 10 µM Mg2+ | relative to: high Mg2+ state, higher = stronger signaling | fold induction | 21

Some of these lines once more (set 1):
Modification | mean fluorescence intensity
2'F-ANA at 1 3 9 13 15 | 246 a.u.
